Experimental data of several laboratories.
Protocols differ between the studies behind these lines. ± gives the spread as reported.
Organism: Plasmodium falciparum

Compound	test	system	setting	IC50
C[C@H]1[C@H](OC(=O)CCC(=O)O)O[C@@H]2O[C@@]3(C)CC[C@H]4[C@H](C)CC[C@@H]1[C@@]24OO3	parasite growth		48 h, drug-resistant strain, blood stage	< 1 µg/mL
CCCCN=Cc1[nH]c(-c2ccc[nH]2)cc1OC	parasite growth	Dd2, chloroquine-resistant		159 nM
CC[C@H](C)[C@@H]1NC(=O)[C@H](CCCCN)NC(=O)[C@H](CCCCN)NC(=O)[C@H](Cc2ccc(O)cc2)NC(=O)[C@H](CC(C)C)NC(=O)[C@@H]2CCCN2C(=O)CNC(=O)CNC(=O)[C@@H](NC(=O)CN)CSSC[C@@H](C(=O)N[C@@H](CCCCN)C(=O)N[C@@H](CO)C(N)=O)NC(=O)[C@H](CC(C)C)NC(=O)[C@H](CCCCN)NC(=O)[C@H](CCCCN)NC(=O)[C@H]([C@@H](C)CC)NC(=O)[C@H]([C@@H](C)CC)NC(=O)[C@H](CCCCN)NC(=O)[C@H](CCCCN)NC(=O)[C@H](Cc2ccc(O)cc2)NC(=O)[C@H](CC(C)C)NC(=O)[C@@H]2CCCN2C(=O)[C@H](C)NC(=O)CNC(=O)CNC(=O)[C@H](CO)NC(=O)CNC(=O)CNC(=O)[C@H](CO)NC(=O)[C@H](CCCCN)NC(=O)[C@H](CC(C)C)NC(=O)[C@H](CC(C)C)NC(=O)[C@H](CCCCN)NC(=O)[C@H](CCCCN)NC(=O)[C@H]([C@@H](C)CC)NC1=O	parasite growth	3D7	72 h, 5% serum plus Albumax II	10200 ± 600 nM
OCCCCCCCCCCCCOCCCc1cccnc1	anti-HRPII ELISA	W2 chloroquine-resistant	72 h	15100 ± 800 nM
CC[C@H](C)[C@@H]1NC(=O)[C@H](CCCCN)NC(=O)[C@H](CCCCN)NC(=O)[C@H](Cc2ccc(O)cc2)NC(=O)[C@H](CC(C)C)NC(=O)[C@@H]2CCCN2C(=O)[C@H](C)NC(=O)CNC(=O)CNC(=O)[C@H](CO)NC(=O)CNC(=O)CNC(=O)[C@H](CO)NC(=O)[C@H](CCC(=O)O)NC(=O)[C@H](CC(C)C)NC(=O)[C@H](CC(C)C)NC(=O)[C@H](CCCCN)NC(=O)[C@H](CCCCN)NC(=O)[C@H]([C@@H](C)CC)NC(=O)[C@H]([C@@H](C)CC)NC(=O)[C@H](CCCCN)NC(=O)[C@H](CCCCN)NC(=O)[C@H](Cc2ccc(O)cc2)NC(=O)[C@H](CC(C)C)NC(=O)[C@@H]2CCCN2C(=O)CNC(=O)CNC(=O)CSC[C@@H](C(N)=O)NC(=O)[C@H](CC(C)C)NC(=O)[C@H](CCCCN)NC(=O)[C@H](CCCCN)NC(=O)[C@H]([C@@H](C)CC)NC1=O	parasite growth	3D7	72 h, Albumax II medium, no serum	~8000 nM
CC1=CC(c2ccc[nH]2)=NC1=CNC1CCCCCC1	parasite growth	7G8, chloroquine-resistant		> 250 nM
Cc1ccc(C(C)C)cc1.[Cl][Ru+].[O-]c1ccccc1C=NCCNc1ccnc2cc(Cl)ccc12	parasite growth, parasite lactate dehydrogenase	D10 chloroquine-sensitive		70 ± 7 nM
COc1cc2c3cc1Oc1cc(ccc1O)CC1c4c(cc(OC)c(O)c4Oc4ccc(cc4)CC3N(C)CC2)CCN1C (stereo not shown)	parasite growth, SYBR green I	INDO		466 ± 50.8 nM
CC[C@H](C)[C@@H]1NC(=O)[C@H](CCCCN)NC(=O)[C@H](CCCCN)NC(=O)[C@H](Cc2ccc(O)cc2)NC(=O)[C@H](CC(C)C)NC(=O)[C@@H]2CCCN2C(=O)[C@H](C)NC(=O)CNC(=O)CNC(=O)[C@H](CO)NC(=O)CNC(=O)CNC(=O)[C@H](CO)NC(=O)[C@H](CCC(=O)O)NC(=O)[C@H](CC(C)C)NC(=O)[C@H](CC(C)C)NC(=O)[C@H](CCCCN)NC(=O)[C@H](CCCCN)NC(=O)[C@H]([C@@H](C)CC)NC(=O)[C@H]([C@@H](C)CC)NC(=O)[C@H](CCCCN)NC(=O)[C@H](CCCCN)NC(=O)[C@H](Cc2ccc(O)cc2)NC(=O)[C@H](CC(C)C)NC(=O)[C@@H]2CCCN2C(=O)CNC(=O)CNC(=O)[C@@H](NC(=O)CN)CSSC[C@@H](C(N)=O)NC(=O)[C@H](CC(C)C)NC(=O)[C@H](CCCCN)NC(=O)[C@H](CCCCN)NC(=O)[C@H]([C@@H](C)CC)NC1=O	parasite growth	3D7	72 h, 5% serum plus Albumax II	12300 ± 1000 nM
CCCCCCN=Cc1[nH]c(-c2ccc[nH]2)cc1OC	parasite growth	Dd2, chloroquine-resistant		37 nM
CC(C)(C)c1cc(CN(Cc2ccccn2)Cc2ccccn2)c(O)c(CN(Cc2ccccn2)Cc2ccccn2)c1	growth, [3H]hypoxanthine incorporation	HB3 chloroquine-sensitive	48 h	103 ± 8 nM
CCCCN1C(=O)c2ccc3c4c(ccc(c24)C1=O)C(=O)N(CCNc1c2ccc(Cl)cc2nc2ccc(OC)cc12)C3=O	parasite growth, SYBR Green	W2	72 h, drug-resistant strain, blood stage	52.2 nM
CCNCC1=C(O)C(=O)c2ccccc2C1=O	parasite growth	W2	drug-resistant strain, blood stage	30600 nM
O=C(C1CCN(c2nnnn2-c2ccccc2)CC1)N1CCCc2ccccc21	[3H]hypoxanthine incorporation	7G8		470 nM
O=C(CCc1ccc[nH]1)NCC(=O)NC12CC3CC(CC(C3)C1)C2	parasite growth	Dd2, chloroquine-resistant		> 2500 nM
COc1cccc2c(-c3ccc4c(c3O)[C@@H](C)N[C@H](C)C4)c(CO)cc(OC)c12	parasite growth, SYBR Green	W2	96 h, drug-resistant strain, blood stage	84 nM
C#CCOc1ccc(C=NNC(=N)NN=Cc2ccc(OCC#C)cc2)cc1	parasite growth, SYBR Green	Tm90-C2B, multidrug and atovaquone resistant	72 h	376 nM
COC1=CC(c2ccc[nH]2)=NC1=CNC1CCCCCCC1	parasite growth	7G8, chloroquine-resistant		7.5 nM
CCCC1(CC)OOC2(CCN(C(=O)c3ccccc3)CC2)OO1	parasite growth, imaging	3D7	48 h, blood stage	17.8 nM
CC[C@H](C)[C@@H]1NC(=O)[C@H](CCCCN)NC(=O)[C@H](CCCCN)NC(=O)[C@H](Cc2c[nH]c3ccccc23)NC(=O)[C@H](CC(C)C)NC(=O)[C@@H]2CCCN2C(=O)[C@H](C)NC(=O)CNC(=O)CNC(=O)[C@H](CO)NC(=O)CNC(=O)CNC(=O)[C@H](CO)NC(=O)[C@H](CCC(=O)O)NC(=O)[C@H](CC(C)C)NC(=O)[C@H](CC(C)C)NC(=O)[C@H](CCCCN)NC(=O)[C@H](CCCCN)NC(=O)[C@H]([C@@H](C)CC)NC(=O)[C@H]([C@@H](C)CC)NC(=O)[C@H](CCCCN)NC(=O)[C@H](CCCCN)NC(=O)[C@H](Cc2c[nH]c3ccccc23)NC(=O)[C@H](CC(C)C)NC(=O)[C@@H]2CCCN2C(=O)CNC(=O)CNC(=O)[C@@H](NC(=O)CN)CSSC[C@@H](C(N)=O)NC(=O)[C@H](CC(C)C)NC(=O)[C@H](CCCCN)NC(=O)[C@H](CCCCN)NC(=O)[C@H]([C@@H](C)CC)NC1=O	parasite growth	3D7	72 h, Albumax II medium, no serum	2200 ± 100 nM
CCC1=CC(c2ccc[nH]2)=NC1=CNC1CCCCCCC1	parasite growth	7G8, chloroquine-resistant		> 250 nM
COc1ccc2c(c1)[n+]([O-])c(C#N)c(-c1ccco1)[n+]2[O-]	parasite growth, [3H]hypoxanthine incorporation	K1 chloroquine-resistant		280 ± 70 nM

Repeated from above:
Compound	test	system	setting	IC50
CC[C@H](C)[C@@H]1NC(=O)[C@H](CCCCN)NC(=O)[C@H](CCCCN)NC(=O)[C@H](Cc2ccc(O)cc2)NC(=O)[C@H](CC(C)C)NC(=O)[C@@H]2CCCN2C(=O)CNC(=O)CNC(=O)[C@@H](NC(=O)CN)CSSC[C@@H](C(=O)N[C@@H](CCCCN)C(=O)N[C@@H](CO)C(N)=O)NC(=O)[C@H](CC(C)C)NC(=O)[C@H](CCCCN)NC(=O)[C@H](CCCCN)NC(=O)[C@H]([C@@H](C)CC)NC(=O)[C@H]([C@@H](C)CC)NC(=O)[C@H](CCCCN)NC(=O)[C@H](CCCCN)NC(=O)[C@H](Cc2ccc(O)cc2)NC(=O)[C@H](CC(C)C)NC(=O)[C@@H]2CCCN2C(=O)[C@H](C)NC(=O)CNC(=O)CNC(=O)[C@H](CO)NC(=O)CNC(=O)CNC(=O)[C@H](CO)NC(=O)[C@H](CCCCN)NC(=O)[C@H](CC(C)C)NC(=O)[C@H](CC(C)C)NC(=O)[C@H](CCCCN)NC(=O)[C@H](CCCCN)NC(=O)[C@H]([C@@H](C)CC)NC1=O	parasite growth	3D7	72 h, 5% serum plus Albumax II	10200 ± 600 nM
OCCCCCCCCCCCCOCCCc1cccnc1	anti-HRPII ELISA	W2 chloroquine-resistant	72 h	15100 ± 800 nM
